# Assay results of several laboratories.
# ± marks the error that the study gave.
SMILES,species,sample,route,dose,added,AUC(0-inf)
CC(=O)NCc1cc2c(cc1F)C(=O)N(C1CCC(=O)NC1=O)C2 (stereo not drawn),male CD-1 mouse,plasma,oral,10 mg/kg of parent drug,,12.3 ± 9.8 ng·h/mL
COc1ccc2nc(-c3ccccn3)c(N(C)c3ccc(F)cc3)n2c1,"CD1 mouse, male, fasted",plasma,oral,50 mg/kg,ABT 50 mg/kg,1320 ng·h/mL
CCOC(=O)C1=C(CN2CCC[C@@H]2C(=O)Nc2ccc(B(O)O)cc2)NC(c2nccs2)=N[C@H]1c1ccc(F)cc1Br,ICR mouse,plasma,oral,10 mg/kg,,377 ± 23.7 ng·h/mL
Cc1[nH]c(C)c(S(=O)(=O)Nc2ccc(C(F)(F)F)c(Cl)c2)c1C(=O)N1CCC(F)(F)C1,mouse,plasma,intraperitoneal,40 mg/kg,,97600 ng·h/g
O=C1CCC(N2Cc3cc(CO)c(F)cc3C2=O)C(=O)N1 (stereo not drawn),male CD-1 mouse,plasma,oral,10 mg/kg of parent drug,,85.1 ± 39.4 ng·h/mL
CC(=O)N(C)C1CCN(c2cc(F)cc(NC(=O)c3cc4c(F)ccc(C)c4[nH]3)c2)C1 (stereo not drawn),CD1 mouse,,intravenous,1 mg/kg,,697 ng·h/mL
O=[N+]([O-])c1ccc(-c2ccc(O)cc2)c2cccnc12,male ICR mouse,plasma,intravenous,1 mg/kg,,140 ng·h/mL
CC[C@H](C)[C@@H]1NC(=O)[C@@](C)(NC(=O)[C@H](CCCNC(=N)N)NC(=O)[C@H](CC(C)C)NC(=O)[C@@H](NC(=O)[C@H](CCC(N)=O)NC(=O)[C@H](CC(C)C)NC(C)=O)[C@@H](C)O)CCCC=CCCC[C@@](C)(C(=O)N[C@@H](CC(C)C)C(=O)N[C@@H](Cc2ccc3ccccc3c2)C(N)=O)NC(=O)[C@H](CCCNC(=N)N)NC(=O)[C@H](CCC(N)=O)NC1=O,male BALB/c mouse,plasma,intramuscular,5 mg/kg,,45300 ng·h/mL
CC(C)[C@@H](CS(=O)(=O)C(C)C)N1C(=O)[C@@](C)(CC(=O)O)C[C@H](c2cccc(Cl)c2)[C@H]1c1ccc(Cl)cc1,"FVB mouse, wild type",spinal cord,intravenous,20 mg/kg,,106 ± 13.1 ng·h/mL
